Results pooled from the literature.
Lines come from different studies, so protocols differ. “And” joins repeats or separate records; there may be more than shown. ± gives the spread as reported.
NADH dehydrogenase [ubiquinone] iron-sulfur protein 7, mitochondrial/NADH dehydrogenase [ubiquinone] iron-sulfur protein 2, mitochondrial/MT-ND1: NADH dehydrogenase [ubiquinone] iron-sulfur protein 7, mitochondrial/NADH dehydrogenase [ubiquinone] iron-sulfur protein 2, mitochondrial/MT-ND1 (Homo sapiens, UniProt O75251+O75306+P03886)
FFAR4: Free fatty acid receptor 4 (FFAR4, Homo sapiens, UniProt Q5NUL3)
GAP50: Glideosome-associated protein 50 (GAP50, Plasmodium falciparum, UniProt Q8I2X3)
TRPM8: Transient receptor potential cation channel subfamily M member 8 (TRPM8, Homo sapiens, UniProt Q7Z2W7)
Kir3.1/Kir3.2: Kir3.1/Kir3.2 (Homo sapiens, UniProt P48051+P48549)

SMILES	target	assay	test system	conditions	scale	quantity	result
O=C(O)C1CCCCN1 (centres unmarked)	uncharacterized protein (Pelagibacter ubique, UniProt Q4FKZ8)	differential scanning fluorimetry	Candidatus Pelagibacter ubique	in-house screen	–	thermal shift	11.5 °C
Nc1ncnc2c1ncn2[C@@H]1O[C@H](COP(=O)(O)CP(=O)(O)OP(=O)(O)O)[C@@H](O)[C@H]1O	P2X purinoceptor 1 (P2RX1, Homo sapiens, UniProt P51575, K136W)	calcium influx	–	3.16 µM	baseline: ionomycin response	calcium influx	96.4% and 100% and 85.4%
NC(=O)NOCCCCCCCCCC[P+](c1ccccc1)(c1ccccc1)c1ccccc1.O=C([O-])C(F)(F)F	NADH dehydrogenase [ubiquinone] iron-sulfur protein 7, mitochondrial/NADH dehydrogenase [ubiquinone] iron-sulfur protein 2, mitochondrial/MT-ND1	complex I-dependent respiration, Seahorse XF96	HCT-116	5 µM, 24 h	baseline: control	oxygen consumption rate	84.2 ± 7.55%
O=c1cc(NCCc2ccc(Cl)cc2)[nH]c(=O)[nH]1	FFAR4	agonist, β-arrestin recruitment	CHO cells	10 µM	baseline: 30 µM TUG-891	agonist effect	0%
NC(=O)NOCCCCCCCCCCCCCCCCCCCC[P+](c1ccccc1)(c1ccccc1)c1ccccc1.O=C([O-])C(F)(F)F	NADH dehydrogenase [ubiquinone] iron-sulfur protein 7, mitochondrial/NADH dehydrogenase [ubiquinone] iron-sulfur protein 2, mitochondrial/MT-ND1	complex I-dependent respiration, Seahorse XF96	HCT-116	0.1 µM, 24 h	baseline: control	oxygen consumption rate	101 ± 8.97%
Oc1c(F)cc(C(c2cc(F)c(O)c(F)c2)(C(F)(F)F)C(F)(F)F)cc1F	Sarcoplasmic/endoplasmic reticulum calcium ATPase 1 (ATP2A1, Oryctolagus cuniculus, UniProt P04191)	ATPase activity, inhibitor, PK/LDH coupled	–	concentration not given	–	activity	active
c1ccc(Oc2ccc(-c3cc(N4CCOCC4)n[nH]3)cc2)cc1	GAP50	binding, surface plasmon resonance	–	1:1 binding model	–	kon	14800 M⁻¹ s⁻¹
Nc1nc2c(F)c(F)c(F)cc2[nH]1	Voltage-gated hydrogen channel 1 (HVCN1, Homo sapiens, UniProt Q96D96)	proton current, inhibitor, inside-out patch clamp	Xenopus oocytes	dimeric channel	–	Hill coefficient	1.09 ± 0.08
CCc1nc(-c2ccc(OC)cc2)[nH]c1-c1ccncc1	TRPM8	antagonist	HEK293	5 µM	baseline: control	remaining activity	100 ± 8.87%
Nc1ncnc2c1ncn2C(C=O)OC(C=O)CO (centres unmarked)	SART3	co-immunoprecipitation	HEK293T expressing GFP-RMET	25 µM, 3 days	–	SART3 binding	decreased
N=C(N)NCCCCC(=O)Nc1cc(C(F)(F)F)cc(NC(=O)c2cc(C(=O)Nc3cc(C(F)(F)F)cc(NC(=O)CCCCNC(=N)N)c3O[C@@H]3CCNC3)ncn2)c1O[C@@H]1CCNC1	GAP50	surface plasmon resonance	–	–	–	kon	21200 M⁻¹ s⁻¹
N=C1NC(=O)C2(CCc3ccc(Cl)cc32)C(=O)N1 (centres unmarked)	GABA-A receptor; alpha-1/beta-3/gamma-2 (Homo sapiens, UniProt P14867+P18507+P28472)	–	–	300 µM	–	Emax	2%
Nc1ccc(C(=O)O)cc1	BEST1, with wild-type BEST1 (Homo sapiens, UniProt O76090, R218H)	ion current, whole-cell patch clamp	HEK293 co-expressing mutant and wild-type	concentration not given, voltage -100 mV	–	current density	-13.1 pA/pF and -10.5 pA/pF and -15.8 pA/pF and -26.3 pA/pF and -23.7 pA/pF and -38.4 pA/pF and -4.11 pA/pF and -4.8 pA/pF
O=C(COc1cccc(Cl)c1Cl)NCc1cccs1	Kir3.1/Kir3.2	activator, thallium flux	HEK293	concentration not given	–	activity	inactive
Nc1ncnc2c1ncn2[C@@H]1O[C@H](CO[P@](=O)(O)O[P@](=O)(O)O[P@@](=O)(O)S)[C@@H](O)[C@H]1O	GUK1 (Homo sapiens, UniProt Q16774, K17A)	binding, ITC	–	–	–	ΔH	-3.29 ± 0.36 kcal/mol
CNC(=O)[C@@]12C[C@@H]1[C@@H](n1cnc3c(NCCc4ccc(O)c(O)c4)nc(C#Cc4ccc(Cl)s4)nc31)[C@H](O)[C@@H]2O	Adenosine receptor A3 (Mus musculus, UniProt Q61618)	radioligand binding	HEK293 membranes	–	baseline: mouse A3 over human A3 affinity	selectivity ratio	23 to 25 fold
CC[C@H](C)[C@H](NC(=O)[C@H](C)NC(=O)[C@H](C)NC(=O)[C@@H](NC(=O)[C@H](CC(=O)O)NC(=O)[C@H](CS)NC(=O)[C@H](CC(C)C)NC(=O)[C@H](CCC(=O)O)NC(=O)[C@H](C)NC(=O)[C@H](CC(=O)O)NC(=O)[C@H](CO)NC(=O)[C@H](C)NC(=O)[C@H](CC(N)=O)NC(=O)[C@H](C)NC(=O)[C@H](CC(C)C)NC(=O)[C@H](C)NC(=O)[C@H](CCC(=O)O)NC(=O)[C@H](CCC(=O)O)NC(=O)[C@H](CC(C)C)NC(=O)[C@H](CCC(=O)O)NC(=O)[C@@H]1CCCN1C(=O)[C@H](CCC(=O)O)NC(=O)[C@H](CC(C)C)NC(=O)[C@@H](NC(=O)[C@@H](NC(=O)[C@@H](N)CO)C(C)C)[C@@H](C)O)[C@@H](C)CC)C(=O)N[C@@H](CC(C)C)C(=O)NCC(=O)N[C@@H](CCSC)C(=O)N[C@@H](Cc1c[nH]cn1)C(=O)N[C@H](C(=O)N[C@@H](CC(C)C)C(=O)N[C@@H](CCSC)C(=O)N[C@@H](CO)C(=O)N[C@@H](CC(N)=O)C(=O)N[C@@H](CCC(N)=O)C(=O)O)[C@@H](C)O	Tropomyosin alpha-1 chain (Tpm1, Rattus norvegicus, UniProt P04692)	complex unfolding, circular dichroism	–	40 µM each peptide, pH 7.0, WT peptide	–	melting temperature	31.3 ± 0.5 °C
CCCCCCCCN(C)c1cc(=O)[nH]c(=O)[nH]1	FFAR4	antagonist, β-arrestin recruitment	CHO cells	10 µM, together with: 4 µM TUG-891	–	inhibition	22 ± 2%
Oc1ccccc1-c1n[nH]cc1-c1ccnc2ccccc12	Serine/threonine protein kinase YCK2 (YCK2, Candida albicans, UniProt A0A1D8PKB4)	kinase binding, MIB/MS competition	Candida albicans lysate	1 µM	baseline: DMSO, negative = stronger binding	log2 fold change	-1.13
O=C(O)CCCCCNc1cc(=O)[nH]c(=O)[nH]1	FFAR4	antagonist, β-arrestin recruitment	CHO cells	10 µM, together with: 4 µM TUG-891	–	inhibition	16 ± 2%
CO[C@H]1O[C@H](COS(=O)(=O)O)[C@@H](O[C@@H]2O[C@@H](C(=O)O)[C@@H](O[C@H]3O[C@H](COS(=O)(=O)O)[C@@H](O[C@@H]4O[C@H](C(=O)O)[C@@H](O[C@H]5O[C@H](COS(=O)(=O)O)[C@@H](O)[C@H](O)[C@H]5NS(=O)(=O)O)[C@H](O)[C@H]4O)[C@H](OS(=O)(=O)O)[C@H]3NS(=O)(=O)O)[C@H](O)[C@H]2OS(=O)(=O)O)[C@H](O)[C@H]1NS(=O)(=O)O	Beta-2-glycoprotein 1, domain V (APOH, Homo sapiens, UniProt P02749, V266L)	isothermal titration calorimetry	–	concentration not given, 298 K, together with: 100 mM NaCl	–	binding stoichiometry	0.96 ± 0.05

SMILES	target	assay	test system	conditions	scale	quantity	result
C=CC(=O)N1CCC[C@@H](n2nc(-c3ccc(Oc4ccccc4)cc3)c3c(N)ncnc32)C1	Tyrosine-protein kinase ABL2 (ABL2, Homo sapiens, UniProt P42684)	–	–	1 µM	–	remaining activity	352%
COc1ccc(Oc2ccc([C@@H](C)N(C)c3ncc4c(N)nc(N)nc4n3)cc2)cc1	GAP50	binding, surface plasmon resonance	–	1:1 binding model	–	koff	0.363 s⁻¹
O=c1cc(-c2cccc3c2Sc2ccccc2S3)oc(N2CCOCC2)c1	TRPM8	antagonist	HEK293	5 µM	baseline: control	remaining activity	85.9 ± 8.3%
CC(=C/C(=O)O)/C=C/C=C(\C)C1C=C2C(C)(C)CCCC2(C)O1 (centres unmarked)	Rhodopsin (RHO, Homo sapiens, UniProt P08100, P23H)	ER retention, immunostaining co-localization, item: opsin with calnexin	COS-7 transfected P23H	20.00 µM	–	Pearson correlation coefficient	0.54
O=C(COc1cc(Cl)ccc1Cl)Nc1cc(C2CCC2)nn1C1CCOCC1	Kir3.1/Kir3.2	thallium flux, activator	HEK293	–	baseline: standard compound	Emax	58%
O=C(ON1C(=O)CCC1=O)c1cc(C(F)(F)F)cc(C(F)(F)F)c1	CD209 antigen (CD209, Homo sapiens, UniProt Q9NNX6)	covalent labelling, intact protein MS	–	100 µM	–	kobs	0.175 min⁻¹
Cc1nc(CSc2nc(SCc3ccc(C(C)C)cc3)nc(=O)[nH]2)cs1	DNA topoisomerase 2-alpha (TOP2A, Homo sapiens, UniProt P11388)	DNA cleavage	–	125 µM, replicate 2	–	linear DNA	3.67%
Cc1cc(C)n2nc(C)c(-c3ccc(F)cc3)c2n1	3-oxoacyl-[acyl-carrier-protein] reductase FabG (fabG, Pseudomonas aeruginosa, UniProt O54438)	enzyme activity, inhibitor, NADPH fluorescence	–	reverse reaction, together with: 3-OH-decanoyl-NAC, NADP	–	Hill slope	1.3
CCCCCCCCCCCCO[C@@H]1O[C@H](CO)[C@@H](O[C@H]2O[C@H](CO)[C@@H](O)[C@H](O)[C@H]2O)[C@H](O)[C@H]1O	Glucagon receptor (GCGR, Homo sapiens, UniProt P47871)	CPM thermal shift	–	–	–	melting temperature	43.5 ± 0.4 °C
O=C(NCc1ccc(CNS(=O)(=O)c2ccccc2)cc1)c1cccc(F)c1	C-X-C chemokine receptor type 4 (CXCR4, Homo sapiens, UniProt P61073)	binding, inhibitor, competitive binding	MDA-MB-231	together with: biotinylated TN14003	–	EC	100 nM
COc1cc2c(cc1OC)-c1[nH]nc(Nc3cccc(F)c3)c1C2	TRPM8	antagonist	HEK293	5 µM	baseline: control	remaining activity	98.8 ± 5.16%
C=CC(=O)N1CCC(C(=O)NCC(=O)N2CCN(c3nc(-c4cnc(N)nc4C(F)F)nc(N4CCOCC4)n3)CC2)CC1	Myosin light chain kinase family member 4 (MYLK4, Homo sapiens, UniProt Q86YV6)	KINOMEscan	–	1 µM	–	remaining binding	100%
COc1ccc(/C=C2\OC(=O)c3c2cc(C)[nH]c3=O)cc1	Dual specificity calcium/calmodulin-dependent 3',5'-cyclic nucleotide phosphodiesterase 1C, isoform PDE1C2 (PDE1C, Homo sapiens, UniProt Q14123)	enzyme activity, inhibitor	–	together with: 3H-cGMP substrate	–	binding free energy	-6.51 kcal/mol
O=C(COP(=O)(O)O)[C@@H](O)[C@H](O)[C@H](O)COP(=O)(O)O	PGM1 (Homo sapiens, UniProt P36871)	–	–	0.125 mM, unit not given	baseline: activity at 0 mM set to 100	enzyme activity	102 and 103 and 99.8
O=C(Nc1ccccc1-c1nc2c(C(=O)O)cccc2o1)c1ccccc1	GAP50	binding, surface plasmon resonance	–	1:1 binding model	–	koff	0.00182 s⁻¹
CCCCCCCCCNc1cc(=O)n(C)c(=O)[nH]1	FFAR4	antagonist, β-arrestin recruitment	CHO cells	10 µM	–	inhibition	17 ± 2%
Nc1ncnc2c1ncn2[C@@H]1O[C@H](COP(=O)(O)OP(=O)(O)OP(=O)(O)O)[C@@H](O)[C@H]1O	Hexokinase-3 (HK3, Homo sapiens, UniProt P52790, D264A/R265A)	substrate	–	mutant D264A/R265A, together with: glucose 0.5 mM	–	Km	1900 ± 100 µM
c1ccc(C(NCc2cccnc2)(c2ccccc2)c2ccccc2)cc1	Potassium voltage-gated channel subfamily KQT member 1 (KCNQ1, Homo sapiens, UniProt P51787)	channel activation	–	100 pM	–	G-V slope factor	13 ± 10 mV
CCCCCCN(C)c1cc(=O)[nH]c(=O)[nH]1	FFAR4	agonist, β-arrestin recruitment	CHO cells	10 µM	baseline: 30 µM TUG-891	agonist effect	1%
NC(=O)NOCCCCCCCCCCCC[P+](c1ccccc1)(c1ccccc1)c1ccccc1.O=C([O-])C(F)(F)F	NADH dehydrogenase [ubiquinone] iron-sulfur protein 7, mitochondrial/NADH dehydrogenase [ubiquinone] iron-sulfur protein 2, mitochondrial/MT-ND1	complex I-dependent respiration, Seahorse XF96	HCT-116	7.5 µM, 24 h	baseline: control	oxygen consumption rate	2.39 ± 1.86%
